Results from different studies.
Lines come from different studies, so protocols differ. ± gives the spread as reported. In brackets after ≈: the same amount, converted by molar mass.

SMILES	test	system	conditions	scale	quantity	value
CCCCCCc1ccc(Oc2ccccc2C#N)c(O)c1	rapid equilibrium dialysis	mouse plasma	4 h, 37 °C		unbound fraction in plasma	0.01
CN1CCC[C@]1(C)/C=C/S(=O)(=O)NC(=O)Nc1c2c(cc3c1CCC3)CCC2		human, plasma	oral, 100 mg, single dose, healthy volunteers		Cmax	11500 ng/mL
NC[C@@H](C(=O)Nc1ccc(-c2cn[nH]c2)cc1)c1ccccc1	OECD 405 eye irritation	New Zealand White rabbit, eye	topical, 0.1%, 97 h (day 5), scale 0 to 4	direction not given	cornea score	0
CCCCN1C(=O)c2cccc3c(NCCCCCCCCCCN4CCOCC4)ccc(c23)C1=O		aqueous medium	pH 6		average fluorescence lifetime	4.2 ns
COc1ccc2cc(-c3ccc(-c4ccc(C)cn4)nc3)oc2c1		aqueous HEPES buffer	pH 7.4, zinc(II)-saturated form, added: quinine bisulfate reference		fluorescence quantum yield	0.15
CC(C)(O)c1ncc([S@](N)(=O)=NC(=O)Nc2c3c(cc4c2CCC4)CCC3)s1		human, plasma	oral, 600 mg, single dose, fasted, healthy volunteers		AUC(0-inf)	839000 ng·h/mL
CC(C)=CCC[C@](C)(O)[C@H]1CC[C@]2(C)[C@@H]1[C@H](O)C[C@@H]1[C@@]3(C)CC[C@H](O)C(C)(C)[C@@H]3CC[C@]12C		Labrafac CC	72 h, 25 °C		solubility	3800 ± 820 µg/mL (≈ 8.25 mM)
O=C(COc1ccc(CO)cc1)N(Cc1cccs1)c1cc[nH]n1	LC-MS EIC	human liver microsomes, pooled, both sexes	10 µM, 60 min	baseline: reference compound at start	relative peak area	6.31%
CNC(=O)N[C@]1(C)CCC[C@@]2(C)C3CC[C@@]4(C)C[C@]3(CCC21)CC4=O (single isomer, unassigned)		rat plasma	1.5 ng/mL, freeze-thaw stability, three cycles	baseline: nominal concentration	relative error	-2%
Cc1c(C(=O)Nc2ccn(C)n2)ncn1Cc1cccc(C(F)(F)F)c1		C57BL/6 mice, non-transgenic, liver	oral, drinking water, 50 mg/kg daily, 10 days		concentration at time point	1250 ± 291 ng/g
C#CCOc1ccc(/C=C2\SC(=O)N(CC(=O)NCc3ccccc3)C2=O)cc1	inverse Kirkwood-Buff integrals	binary solvent mixture	298.15 K, mole fraction x1 0.50		Kirkwood-Buff integral G2,3	-366 cm³/mol
COc1cc(NC(C)=O)c2c(c1O)-c1c(OC)c(OC)cc3c1C(C2)N(C)CC3 (centres unmarked)		rat, plasma	50 µg/mL, time not given, -20 °C to room temperature, three freeze-thaw cycles		remaining compound	105 ± 6.6%
CC(=O)N[C@H](CSSC[C@H](N)C(=O)O)C(=O)N[C@H](C)C(=O)N[C@H](CCCNC(=N)N)C(=O)N[C@H](CCCNC(=N)N)C(=O)N[C@H](CCCNC(=N)N)C(=O)N[C@H](C)C(=O)N[C@H](CCCNC(=N)N)C(N)=O		male human, plasma	intravenous, 0.5 mg, single dose, healthy volunteers		AUC(0-inf)	93.6 ng·h/mL
CCCC[C@@H]1NC(=O)[C@@H](NC(=O)[C@H](CCC(=O)O)NC(=O)CNC(=O)CN2CCN(CC(=O)O)CCN(CC(=O)O)CCN(CC(=O)O)CC2)CCCCNC(=O)C[C@@H](C(N)=O)NC(=O)[C@H](C(C)C)NC(=O)[C@@H]2CCCN2C(=O)[C@H](CCCNC(=N)N)NC(=O)CNC(=O)[C@H](Cc2c[nH]c3ccccc23)NC(=O)[C@H](CCCNC(=N)N)NC(=O)[C@@H](Cc2ccccc2)NC(=O)[C@H](Cc2c[nH]cn2)NC(=O)[C@H](CCC(=O)O)NC1=O [gallium-67 labelled]		normal C57 mice	intravenous, 0.037 MBq, 2 h		lung uptake	0.15 ± 0.1 %ID/g
CC1=CC(C)(C)N=C2C=CC(=O)C=C12	LC-MS/MS	laying hens, liver	oral in feed, 50 mg/kg feed ethoxyquin, 56 days, after glucuronidase treatment		tissue residue	5.6 ± 1.5 ng/g
COc1ccc([C@@H]2CC(=O)c3c(O)cc(O[C@@H]4O[C@H](CO[C@@H]5O[C@@H](C)[C@H](O)[C@@H](O)[C@H]5O)[C@@H](O)[C@H](O)[C@H]4O)cc3O2)cc1O		rat plasma	31.25 ng/mL, -80 °C, long-term storage	baseline: nominal concentration	relative error	-3.97%
C[C@H]1Nc2nc(=O)c3[nH]ccc3n2Cc2ccc(Cl)cc21		Sprague-Dawley rat, both sexes, plasma	oral, 125 mg/kg/day	baseline: rat over human clinical doses	exposure ratio	≥ 33
CC12CC(c3ccc(S(C)(=O)=O)cc3)C3=C4CCC(=O)C=C4CCC3C1CCC2(O)C(F)(F)C(F)(F)F (centres unmarked)		human, plasma	oral, 4 mg, single dose, fasted		AUC	325 ng·h/mL
CC(C)c1cnc(-c2cc(Cl)ccc2F)cc1Nc1ccncc1C(=O)NC(CO)CO	refers to: pyrexia	human patients	oral, dose not given, grade 5		patients with related SAE	0%
Br.Br.O=c1c(O)cccn1CCN1CCN(CCn2cccc(O)c2=O)CC1		hydroxypyridinone groups		baseline: pKa3 over pKa2	pKa difference	1.4
N=C(N)NCCC[C@@H]1NC(=O)[C@H](Cc2c[nH]c3ccccc23)NC(=O)[C@@H](CC2CCCCC2)NC(=O)[C@@H]2CCCN2C(=O)[C@@H](NC(=O)CCc2ccccc2)CCCNC1=O		C57BL/6J mice, spinal cord	intravenous, 1 mg/kg, two-compartment model		apparent central volume (V1/F)	0.07 µg/(ng/g)

SMILES	test	system	conditions	scale	quantity	value
CC(C)(C)NCC(=O)O	shake flask	water	24 h		logP	-1.91
CCCC[C@H](NC(=O)CNC(=O)CNC(=O)CN1CCN(CC(=O)O)CCN(CC(=O)O)CCN(CC(=O)O)CC1)C(=O)N[C@H]1CC(=O)NCCCC[C@@H](C(N)=O)NC(=O)[C@H](Cc2c[nH]c3ccccc23)NC(=O)[C@H](CCCNC(=N)N)NC(=O)[C@@H](Cc2ccccc2)NC(=O)[C@H](Cc2c[nH]cn2)NC1=O [gallium-67 labelled]		female C57 mice, B16/F1 melanoma	intravenous, 0.037 MBq, 24 h	baseline: tumour over liver	tumour to tissue ratio	13.9
CCCC[C@H](NC(=O)CNC(=O)CNC(=O)CN1CCN(CC(=O)O)CCN(CC(=O)O)CCN(CC(=O)O)CC1)C(=O)N[C@H]1CC(=O)NCCCC[C@@H](C(N)=O)NC(=O)[C@H](Cc2c[nH]c3ccccc23)NC(=O)[C@H](CCCNC(=N)N)NC(=O)[C@@H](Cc2ccccc2)NC(=O)[C@H](Cc2c[nH]cn2)NC1=O [indium-111 labelled]		C57 mouse, female, B16/F1 melanoma, urine	intravenous, 0.037 MBq, 4 h		urinary excretion	88.4 ± 3.06%
Cc1ccc(OCC(=O)O)cc1		Sprague-Dawley rat, female, plasma	oral, 100 mg/kg/day of parent drug, day 1, 90-day repeated dosing		Tmax	3 h
CCCC[C@H](NC(=O)CN1CCC(NC(=O)CN2CCN(CC(=O)O)CCN(CC(=O)O)CCN(CC(=O)O)CC2)CC1)C(=O)N[C@H]1CC(=O)NCCCC[C@@H](C(N)=O)NC(=O)[C@H](Cc2c[nH]c3ccccc23)NC(=O)[C@H](CCCNC(=N)N)NC(=O)[C@@H](Cc2ccccc2)NC(=O)[C@H](Cc2c[nH]cn2)NC1=O	biodistribution	C57BL/6J mouse male tumour-bearing	2 h post injection, unblocked	baseline: tumour over muscle	tumour to muscle ratio	211 ± 20.9
OCc1cn(Cc2ccc(-c3noc(-c4ccc(OCC[18F])c(C(F)(F)F)c4)n3)cc2)nn1		rat, blood	intravenous, 1 h		tracer uptake	0.36 %ID/g
C[C@H]1C[C@@H](Oc2cccc(F)n2)CCN1Cc1cnc(N[11C](C)=O)s1		rhesus monkey, plasma	dose not given, 30 min, pre-blocking condition		unchanged radioligand in plasma	~60%
CN1CCN(Cc2ccc([C@H]3C[C@@]4(C)[C@@H](CC[C@@]4(O)C(F)(F)C(F)(F)F)[C@@H]4CCC5=CC(=O)CCC5=C43)cc2)CC1		rat liver microsomes	100 % absorption assumed		maximal oral bioavailability	88%
[11CH3]c1ccc2nc(C3CCC3)n(-c3ccc4[nH]ncc4c3)c2n1		human male, liver			absorbed radiation dose	11.1 µSv/MBq
C[n+]1c(/C=C/c2ccc(N(c3ccccc3)c3ccccc3)cc2)cc(/C=C2\Sc3ccccc3N2CCCN2CCCC2)c2ccccc21		Sprague-Dawley rat, female, plasma	intravenous, 1.5 mg/kg, 2 h		compound remaining in plasma	~56%
CC[C@H](C)[C@H](NC(=O)[C@@H]1CCCN1C(=O)CNC(=O)[C@H](Cc1ccccc1)NC(=O)[C@H](CC(N)=O)NC(=O)[C@H](CC(N)=O)NC(=O)[C@H](CO)NC(=O)[C@H](CO)NC(=O)[C@H](Cc1c[nH]cn1)NC(=O)[C@@H](NC(=O)[C@H](CC(C)C)NC(=O)[C@H](Cc1ccccc1)NC(=O)[C@H](CC(N)=O)NC(=O)[C@H](C)NC(=O)[C@H](CC(C)C)NC(=O)[C@H](CCCNC(=N)N)NC(=O)[C@H](CCC(N)=O)NC(=O)[C@@H](NC(=O)[C@H](C)NC(=O)[C@@H]1CSSC[C@H](NC(=O)[C@@H](N)CCCCN)C(=O)N[C@@H](CC(N)=O)C(=O)N[C@@H]([C@@H](C)O)C(=O)N[C@@H](C)C(=O)N[C@@H]([C@@H](C)O)C(=O)N1)[C@@H](C)O)C(C)C)C(=O)N[C@@H](CC(C)C)C(=O)N[C@@H](CO)C(=O)N[C@@H](CO)C(=O)N[C@H](C(=O)N[C@@H](CC(N)=O)C(=O)N[C@H](C(=O)NCC(=O)N[C@@H](CO)C(=O)N[C@@H](CC(N)=O)C(=O)N[C@H](C(=O)N[C@@H](Cc1ccc(O)cc1)C(N)=O)[C@@H](C)O)C(C)C)[C@@H](C)O	ion mobility mass spectrometry	nitrogen drift gas	dimer charge +5, second conformer		collision cross section	884 ± 14.6 Å²
CCCC[C@H](NC(=O)CNC(=O)CNC(=O)CN1CCN(CC(=O)O)CCN(CC(=O)O)CC1)C(=O)N[C@H]1CC(=O)NCCCC[C@@H](C(N)=O)NC(=O)[C@H](Cc2c[nH]c3ccccc23)NC(=O)[C@H](CCCNC(=N)N)NC(=O)[C@@H](Cc2ccccc2)NC(=O)[C@H](Cc2c[nH]cn2)NC1=O [copper-64 labelled]		female C57 mouse, B16/F1 melanoma	intravenous, 0.037 MBq, 0.5 h	baseline: tumour over muscle	uptake ratio	40.4
CC(C)CCN(c1nc(C#N)nc(NC2COC2)n1)C(C)c1ccc(F)cc1 (centres unmarked)		female CD-1 mice	intraperitoneal, 10 mg/kg, 4 h		brain concentration	12.5 ng/g
CC(C)[C@H](NC(=O)[C@@H]1CCCN1C(=O)[C@H](CCCNC(=N)N)NC(=O)[C@H](CS)NC(=O)[C@H](Cc1c[nH]c2ccccc12)NC(=O)[C@H](CCCNC(=N)N)NC(=O)[C@@H](Cc1ccccc1)NC(=O)[C@H](Cc1c[nH]cn1)NC(=O)[C@H](CCC(=O)O)NC(=O)[C@H](CS)NC(=O)[C@H](CS)NC(=O)CNC(=O)[C@@H]1CC(=O)N[C@@H](CCCNC(=N)N)C(=O)NCC(=O)N[C@@H](CC(=O)O)C(=O)N[C@H](Cc2ccc(O)cc2)C(=O)N1)C(N)=O [technetium-99m labelled]		C57 mice B16/F1 melanoma female	iv, 2 h, added: NDP-MSH blockade	baseline: tumour over kidneys	tumour-to-tissue ratio	0.17
COc1ccc(OC)c(C(=Cc2ccc(O)c(OC)c2)C(=O)NCCc2ccc(O)cc2)c1		KM mice, plasma	oral, 50 mg/kg		Tmax, first peak	5 min
CSCOC1C(=O)C2(C)C(OCSC)CC3OCC3(OC(C)=O)C2C(OC(=O)c2ccccc2)C2(O)CC(OC(=O)C(O)C(C=C(C)C)NC(=O)OC(C)(C)C)C(C)=C1C2(C)C (centres unmarked)		female Sprague-Dawley rat, plasma	intravenous, 1 mg/kg		AUC(0-t)	109 ng·h/mL
CC(C)C[C@H](NC(=O)[C@H](CO)NC(=O)[C@H](CCCNC(=N)N)NC(=O)[C@H](CC(=O)O)NC(=O)[C@H](CCC(=O)O)NC(=O)[C@H](C)NC(=O)[C@@H]1CCCN1C(=O)[C@H](C)NC(=O)[C@H](CCC(=O)O)NC(=O)[C@@H]1CCCN1C(=O)[C@@H]1CCCN1)C(N)=O		rhesus monkey	intranasal, dose not given, 10 weeks, dose escalation		body weight change	≤ 5%
C[C@]12C[C@H](c3ccc(C4CC4)cc3)C3=C4CCC(=O)C=C4CC[C@H]3[C@@H]1CC[C@@]2(O)C(F)(F)C(F)(F)F		human liver microsomes	100 % absorption assumed		maximal oral bioavailability	66%
NC12CNCCNCC(NCc3ccc(CNC(=O)CCCC(=O)NCc4ccc(-c5nncnn5)cc4)cc3)(CNCCNC1)CNCCNC2.[64Cu+2]	OLINDA dosimetry	skin	48 h pretargeting interval, added: huA33-TCO pretargeting		mean absorbed dose	0.0277 rad/mCi
CC[C@H](C)[C@H](NC(=O)[C@H](CC(C)C)NC(=O)[C@H](Cc1c[nH]c2ccccc12)NC(=O)[C@H](C)NC(=O)[C@@H](NC(=O)[C@H](Cc1ccccc1)NC(=O)[C@H](CC(=O)O)NC(=O)[C@H](CCCNC(=N)N)NC(=O)[C@H](C)NC(=O)[C@H](C)NC(=O)[C@H](CC(C)C)NC(=O)[C@H](C)NC(=O)[C@H](CC(=O)O)NC(=O)[C@H](CC(C)C)NC(=O)[C@@H](NC(=O)[C@@H](NC(=O)[C@H](C)NC(=O)[C@H](CC(C)C)NC(=O)[C@H](CCC(=O)O)NC(=O)[C@H](CO)NC(=O)[C@H](CO)NC(=O)[C@H](Cc1ccccc1)NC(=O)[C@@H](NC(=O)CNC(=O)[C@H](CCC(=O)O)NC(=O)CNC(=O)[C@@H](N)Cc1c[nH]cn1)[C@@H](C)O)[C@@H](C)O)[C@@H](C)CC)[C@@H](C)CC)C(=O)N[C@@H](C)C(=O)N[C@H](C(=O)N[C@@H](CCCCN)C(=O)N[C@H](C(=O)N[C@H](C(=O)N[C@@H](CC(=O)O)C(=O)N[C@@H](CCCCN)C(=O)O)[C@@H](C)O)[C@@H](C)CC)[C@@H](C)O	immunoaffinity LC-MS/MS	healthy human subjects, plasma	subcutaneous, 10 mg once weekly, day 36 after 6 doses, steady state, geometric mean		AUCtau	0.211 µM·h
